# Results from different studies.
# Each numbered part is a random draw from the data of one study; scales do not carry over between parts. Positions count from the first letter of the parent shown.

# Series 1
# Target: Eukaryotic initiation factor 4A-I (EIF4A1, Homo sapiens, UniProt P60842, residues 1-406, full length assumed)
# UniProt P60842, sequence (whole entry, looked up): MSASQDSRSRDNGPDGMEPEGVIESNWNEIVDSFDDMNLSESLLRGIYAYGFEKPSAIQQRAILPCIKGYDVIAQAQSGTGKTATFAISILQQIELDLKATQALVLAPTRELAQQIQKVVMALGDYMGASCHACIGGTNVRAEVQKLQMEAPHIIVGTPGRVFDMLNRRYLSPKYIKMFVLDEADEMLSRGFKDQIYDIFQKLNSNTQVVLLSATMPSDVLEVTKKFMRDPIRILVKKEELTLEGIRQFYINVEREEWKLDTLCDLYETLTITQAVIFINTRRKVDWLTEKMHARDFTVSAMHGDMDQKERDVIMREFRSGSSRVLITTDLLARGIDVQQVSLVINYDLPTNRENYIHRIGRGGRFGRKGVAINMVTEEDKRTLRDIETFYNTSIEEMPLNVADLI
# Technique: RNA Bind-n-Seq
# Molecule type: RNA
# Sample: in vitro
# Tested at: 90 pmol
# Notes: 4-mer, random 30-nt RNA, single round
# Added: 3 µM iPr-DMDA-PatA, 2 mM ADP, 2 mM phosphate
# Relative to: input library
# Direction: higher = stronger binding
Oligonucleotide,4-mer enrichment
AGCC,0.935 fold
GUGU,0.858 fold
UAAC,1.24 fold
UGGC,0.703 fold
CGGC,0.65 fold
UGGA,0.981 fold
UUCU,1.03 fold
UAUU,1.21 fold

# Series 2
# Target: RING finger protein unkempt homolog, zinc fingers 1-6, GST-SBP tag (UNK, Homo sapiens, UniProt Q9C0B0, residues 30-357)
# Technique: RNA Bind-n-Seq
# Molecule type: RNA
# Sample: in vitro
# Tested at: not given
# Notes: RNA with constant flanks, ends assumed
# Relative to: input RNA pool
# Direction: higher = stronger binding
# Shared flanks, not repeated: GGGAGUUCUACAGUCCGACGAUC … CAACAGAGGAUUGAGCAUCA
# Target sequence (chain): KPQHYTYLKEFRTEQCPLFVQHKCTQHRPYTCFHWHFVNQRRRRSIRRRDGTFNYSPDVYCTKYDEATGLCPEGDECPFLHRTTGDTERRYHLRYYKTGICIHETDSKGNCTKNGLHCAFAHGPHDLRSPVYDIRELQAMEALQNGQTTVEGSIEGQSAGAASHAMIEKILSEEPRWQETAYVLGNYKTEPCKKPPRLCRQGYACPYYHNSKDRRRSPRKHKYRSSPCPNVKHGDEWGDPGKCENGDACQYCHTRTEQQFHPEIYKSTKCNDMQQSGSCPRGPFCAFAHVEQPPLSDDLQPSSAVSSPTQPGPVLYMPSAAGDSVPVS
Oligonucleotide,bound/input enrichment [ratio]
UCUGAUGUCUCCCAGAUGAAUGAUAGACUGGGAGAAGAUGAAUCCUUGCUAAUGAAAUUAUACCGCUUCCUCCUAAACGAUUCCCCUUUGAAUCCACUACUUGCCAGUUUCUUCAGCAAG,0.206
GCAGCAGCCUCCACUGAGUUUGAGAAUGCUGAAUCUGAGGCUGAUUUCAGUAUCCAUUUCAACCGGUUCAACCCUGAUGGGGAAGAGGAGGAUGUUACAGUACACGAAUGACGUUUCCUU,0.0429
UCUGUGAAAACUUCAGUCACAACAUCAAUUUCAGAGCCUUGGACCCAAAGGAGUUUCUACCGGUCAUCUAAUGCUUCAGAUAAAGAUAGUGAUUUACAGAAAACAUUUUUUUCGUCUUCU,0.123
CUGAAAUUCUCUCCAAUUAAAUAUGGCUACCAGCCUCGCAGGAAUUUUUGGCCAGCAAGAUCCGCUACGAGACUCUUAAAACUUCGCUAUCUCAUACUAGGAUCGGCUGUUGGGGGUGGC,0.639
UAAAAUCUUUGUACUUUUUACAUGAUUGCUGUAUGUAUAUUUUGUUUUAAAUCUAAUAAAAUCCGGGACAGAGAGUGACUCGCUGGGGUUCUUGGGGUCCUUGAGAAUUAAAUUUGUCAA,0.513
AUCGCUGUUGGAUCCAUCUCCUUCCUUCUGGGAGUUGUACUGCUAGUAAUUAAUCAUAAAUACCGAAACAGUAGUAAUACAGCUGACAUUACCAUUUAAUUUUAUAUUAUGAAAGCAAAU,0.608
GGAGCAUUAAUUGCUUCUCUUAUCAACUGCUACAUCAGAGACAACGCCGCCGUAGACGGCAUCCGCUUACAUCUGCAGGACACCUGUCCGCUUCUGUAUAGCACAGACGAUGCAGUUUGU,0.126
CCUCGUGCUGCCACAGUUGUUGCUCGUGGCCCCUUGAAGUGCGUUAAGCUGGACCGACCCCGAUUUGAACGUGUUCUUGGCCCAUGCUCAGACAUCCUCAAACGAAACAUCCAGCAGUAC,0.107

# Series 3
# Target: Centromere-binding protein 1, full length, N-terminal tag (CBF1, Saccharomyces cerevisiae, UniProt P17106, residues 1-351)
# UniProt P17106, sequence (whole entry, looked up): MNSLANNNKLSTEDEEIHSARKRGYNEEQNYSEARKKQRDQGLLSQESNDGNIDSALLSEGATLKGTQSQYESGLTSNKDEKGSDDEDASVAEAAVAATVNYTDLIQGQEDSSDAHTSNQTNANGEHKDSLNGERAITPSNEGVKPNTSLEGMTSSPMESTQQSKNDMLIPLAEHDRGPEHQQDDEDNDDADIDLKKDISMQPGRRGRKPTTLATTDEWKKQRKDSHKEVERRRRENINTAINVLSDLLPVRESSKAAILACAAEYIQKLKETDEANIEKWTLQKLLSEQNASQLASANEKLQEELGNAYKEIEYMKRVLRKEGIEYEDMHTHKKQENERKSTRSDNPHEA
# Technique: protein-binding microarray
# Molecule type: double-stranded DNA, one strand shown
# Sample: in vitro
# Tested at: 0.8 µM
# Notes: whole 60-bp probe, no competitor
# Direction: higher = stronger binding
# Shared flanks, not repeated: … GTCTTGATTCGCTTGACGCTGCTG
Oligonucleotide,fluorescence intensity [a.u.]
CTACATATTGGAAAGAACGTGCAATGGGTAGCTTTC,611
GAAAGTAAGAATGCACAGGTGACTAGTGGTTATTAG,832
CCTAACTACTATAGTGATATGCAATAGCTTCGTACA,509
GAACTCTTTCCTCGCCACCAGATTTTAAGGCAGTAG,561
CTACATTATTTTCGTCAGGCGTGATATCAGCGATTC,880
TGTACGAAGCTATACCACGACATTATAGTAGTTAGG,535
CCTAACTACTATAACTACACCACATAGCTTCGTACA,563
CCTAACTACTATAAACAGGTGAAATAGCTTCGTACA,520

# Series 4
# Target: CCND1, cyclin fold, Cln2 fusion (human)
# Technique: yeast growth competition, sequencing
# Sample: yeast
# Notes: strong parent motif
# Relative to: not given
# Direction: higher = stronger binding
# Parent: viral docking peptide; KGVKRKLFAEDSS; partner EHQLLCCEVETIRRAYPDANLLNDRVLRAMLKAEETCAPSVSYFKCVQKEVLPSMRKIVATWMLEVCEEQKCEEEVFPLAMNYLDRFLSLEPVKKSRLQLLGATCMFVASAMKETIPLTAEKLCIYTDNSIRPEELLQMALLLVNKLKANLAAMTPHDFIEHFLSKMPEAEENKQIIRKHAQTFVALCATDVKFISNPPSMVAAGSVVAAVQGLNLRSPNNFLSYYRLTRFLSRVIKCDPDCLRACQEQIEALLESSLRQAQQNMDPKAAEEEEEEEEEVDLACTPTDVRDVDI
Variant,normalised enrichment score
KGVVRKLFAEDSS [K4V],1.04
KGVKRPLFAEDSS [K6P],0.106
KGVKRKLFAEDGS [S12G],1.33
KGYKRKLFAEDSS [V3Y],0.0774
KGVKRKLFAECSS [D11C],0.648
KGVKRKLFAEDES [S12E],2.2
KGVHRKLFAEDSS [K4H],0.543
KGVKRKLFAPDSS [E10P],0.611
KGEKRKLFAEDSS [V3E],0.347
KGVKRKLFAEDMS [S12M],0.967
KGVKRKLYAEDSS [F8Y],-0.187
KVVKRKLFAEDSS [G2V],1.06
KGVKSKLFAEDSS [R5S],-0.314
KGVKQKLFAEDSS [R5Q],0.407
KGVKRALFAEDSS [K6A],0.857
KGVKRKLFAGDSS [E10G],0.493
KGVKRILFAEDSS [K6I],1.01
KGVKRKLFNEDSS [A9N],0.71
KGVKRKLFAENSS [D11N],0.503
KGVKRKPFAEDSS [L7P],-0.158
KGVKRKLDAEDSS [F8D],-0.183
KGVKRKLTAEDSS [F8T],-0.065
KGVKRKLFEEDSS [A9E],1.84
KGVKRKLFFEDSS [A9F],1.66
KGSKRKLFAEDSS [V3S],0.772

# Mixed results
Substance,tested on,test,test system,conditions,measurement,value
LAYLAGWII,"HLA class I histocompatibility antigen, A alpha chain, allele A*80:01 (Homo sapiens, UniProt P04439)",peptide-MHC binding,peptide,concentration not given,binding,inactive
c1ccc(Oc2ccc(Nc3c4c(nc5ccccc35)CCC4)cc2)cc1,Leishmania donovani,parasite killing,"DD8, promastigotes","33.33 µM, 48 h",inhibition,100%

# Some of these lines once more (series 4):
Variant,normalised enrichment score
KGVKSKLFAEDSS [R5S],-0.314
KGVKQKLFAEDSS [R5Q],0.407
KGVKRALFAEDSS [K6A],0.857
KGVKRKLFAGDSS [E10G],0.493
KGVKRILFAEDSS [K6I],1.01
